Measured values pooled from the literature.
Lines come from different studies, so protocols differ. Numbers after ± are the reported error.
Target: ATP-dependent translocase ABCB1 (ABCB1, Homo sapiens, UniProt P08183)
Sequence of UniProt P08183 (whole entry, looked up): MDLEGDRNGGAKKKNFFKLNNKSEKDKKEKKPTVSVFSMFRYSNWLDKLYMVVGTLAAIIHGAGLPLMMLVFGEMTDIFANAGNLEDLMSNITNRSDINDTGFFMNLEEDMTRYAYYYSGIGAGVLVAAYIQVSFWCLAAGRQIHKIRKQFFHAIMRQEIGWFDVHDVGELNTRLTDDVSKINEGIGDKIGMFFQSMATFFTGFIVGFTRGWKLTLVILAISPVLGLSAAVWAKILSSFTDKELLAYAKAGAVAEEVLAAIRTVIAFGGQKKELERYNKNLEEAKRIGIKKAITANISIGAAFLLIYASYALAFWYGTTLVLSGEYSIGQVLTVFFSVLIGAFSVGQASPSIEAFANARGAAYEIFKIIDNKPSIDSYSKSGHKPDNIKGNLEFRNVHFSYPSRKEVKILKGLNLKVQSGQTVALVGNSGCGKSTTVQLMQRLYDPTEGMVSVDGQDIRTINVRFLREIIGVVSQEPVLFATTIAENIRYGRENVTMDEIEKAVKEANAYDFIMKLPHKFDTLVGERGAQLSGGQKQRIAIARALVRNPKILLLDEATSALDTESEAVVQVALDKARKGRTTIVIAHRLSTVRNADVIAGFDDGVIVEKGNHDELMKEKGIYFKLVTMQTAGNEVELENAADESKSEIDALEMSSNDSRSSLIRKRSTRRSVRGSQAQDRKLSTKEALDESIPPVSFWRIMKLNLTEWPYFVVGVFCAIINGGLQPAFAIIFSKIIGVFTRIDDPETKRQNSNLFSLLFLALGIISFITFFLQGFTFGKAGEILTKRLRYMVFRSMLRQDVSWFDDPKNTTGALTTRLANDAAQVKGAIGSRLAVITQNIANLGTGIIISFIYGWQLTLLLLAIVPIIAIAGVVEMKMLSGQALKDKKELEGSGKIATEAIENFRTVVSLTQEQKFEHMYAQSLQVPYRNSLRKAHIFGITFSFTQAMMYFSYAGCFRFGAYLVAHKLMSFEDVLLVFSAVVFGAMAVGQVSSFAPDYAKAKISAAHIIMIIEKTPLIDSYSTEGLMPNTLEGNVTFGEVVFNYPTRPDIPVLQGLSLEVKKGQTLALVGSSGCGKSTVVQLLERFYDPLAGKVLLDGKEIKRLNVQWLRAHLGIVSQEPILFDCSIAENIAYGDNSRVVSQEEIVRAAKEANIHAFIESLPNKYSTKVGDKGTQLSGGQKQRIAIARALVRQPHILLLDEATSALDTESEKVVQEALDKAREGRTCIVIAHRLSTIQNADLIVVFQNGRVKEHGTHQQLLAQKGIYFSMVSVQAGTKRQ

| SMILES | test | system | conditions | how to read | measurement | result |
| --- | --- | --- | --- | --- | --- | --- |
| COc1ccc(C(=O)N2CCN(c3cc(-c4ccccc4)nc4cc(-c5cccc(Cl)c5)nn34)CC2)cc1 | JC-1 efflux, inhibitor | Jurkat-DNR | – | – | IC50 | 2.89 ± 0.55 µM |
| COc1cccc2c1C(=O)c1c(O)c3c(c(O)c1C2=O)C[C@@](O)(C(=O)CO)C[C@@H]3O[C@H]1C[C@H](N)[C@H](O)[C@H](C)O1 | ATPase activity, substrate | membranes | with: ATP 1 mM | – | Vmax | 3.5 ± 0.2 nmol Pi/min/mg protein |
| O=C(c1ccoc1)N1CCN(c2cc(-c3ccc(F)cc3)nc3cc(-c4ccccc4)nn23)CC1 | JC-1 efflux, inhibitor | Jurkat-DNR | – | – | IC50 | 11.8 µM |
| CN(C)CCC(c1ccc(Cl)cc1)c1ccccn1 (stereo not shown) | transport | MDCK-MDR1 | 10 µM, 90 min | baseline: B-A over A-B | efflux ratio | < 2 |
| Cc1ccc2c(=O)n(-c3ccc(F)cc3)c(CCN3C(=O)c4cccc(OC(C)C)c4C3=O)nc2c1 | substrate | MDCK-MDR1 cells, HBSS buffer | 1 µM, 90 min, pH 7.4 | – | efflux ratio | 1.11 |
| CC(C)[C@H](NC(=O)OC(C)(C)C)c1nc(C(=O)N[C@H](c2nc(C(=O)N[C@H](c3nc(C(=O)O)cs3)C(C)C)cs2)C(C)C)cs1 | calcein-AM efflux, flow cytometry | HeLa transduced with BacMam ABCB1 | 10 µM, 10 min, 5% FBS, with: calcein-AM 0.5 µM | baseline: 1 µM tariquidar | inhibition | < 10% |
| Cc1ccc(Nc2nccc(N(C)c3ccc4c(C)n(C)nc4c3)n2)cc1S(N)(=O)=O | bidirectional transport | MDCK-MDR1 | 5 µM, 240 min, with: erlotinib 5 µM | – | Papp A-B | 35 ± 1.3 nm/s |
| COc1cccc(-c2cc3nc(-c4ccccc4)cc(N4CCN(C(=O)c5ccco5)CC4)n3n2)c1 | JC-1 efflux, inhibitor | Jurkat-DNR | – | – | IC50 | 4.77 ± 0.63 µM |
| C[C@H]1Oc2cc(cnc2N)-c2c(nn(C)c2C#N)CN(C)C(=O)c2ccc(F)cc21 | transport | MDCK-MDR1 | 10 µM, 90 min | baseline: B-A over A-B | efflux ratio | < 2 |
| COc1ccccc1-c1cc2nc(-c3ccccc3)cc(N3CCN(C(=O)c4ccco4)CC3)n2n1 | JC-1 efflux, inhibitor | Jurkat-DNR | – | – | IC50 | 3 ± 0.57 µM |
| COc1ccc(CNC(=O)c2csc([C@@H](NC(=O)c3csc([C@@H](NC(=O)OC(C)(C)C)C(C)C)n3)C(C)C)n2)c(OC)c1 | Bodipy-FL-prazosin efflux, flow cytometry | HeLa transduced with BacMam ABCB1 | 10 µM, 45 min, 5% FBS | baseline: 1 µM tariquidar | inhibition | 87% |
| O=C(c1ccoc1)N1CCN(c2cc(-c3ccccc3F)nc3cc(-c4ccccc4)nn23)CC1 | JC-1 efflux, inhibitor | Jurkat-DNR | – | – | IC50 | 5.61 µM |
| CCOC(=O)c1csc([C@@H](NC(=O)c2csc([C@@H](NC(=O)c3csc([C@@H](N)C(C)C)n3)C(C)C)n2)C(C)C)n1 | calcein-AM efflux, flow cytometry | HeLa transduced with BacMam ABCB1 | 10 µM, 10 min, 5% FBS, with: calcein-AM 0.5 µM | baseline: 1 µM tariquidar | inhibition | 55% |
| O=C(Nc1cnn2ccc(N3CCC[C@@H]3c3cc(F)ccc3F)nc12)N1CC[C@H](O)C1 | – | LLC-PK1 cells expressing human ABCB1 | 3.5 h, with: zosuquidar 1 µM | apical to basolateral | Papp | 51.9 ± 1.4 nm/s |
| CCOC(=O)c1csc([C@@H](NC(=O)c2csc([C@@H](NC(=O)OC(C)(C)C)C(C)C)n2)C(C)C)n1 | Bodipy-FL-prazosin efflux, flow cytometry | HeLa transduced with BacMam ABCB1 | 20 µM, 45 min, 5% FBS | baseline: 1 µM tariquidar | inhibition | 20% |
| Cc1nnc(C(=O)NC(C)(C)c2nc(C(=O)NCc3ccc(F)cc3)c(O)c(=O)n2C)o1 | – | primary human CD4+ T cells, P-gp high | 1 µM, 30 min, pH 7.4, with: [3H]-labelled compound | baseline: P-gp low CD4+ T cells | intracellular accumulation | 38.4 ± 9.6% |
| CC(C)[C@H](NC(=O)OC(C)(C)C)c1nc(C(=O)N[C@H](c2nc(C(=O)O)cs2)C(C)C)cs1 | calcein-AM efflux, flow cytometry | HeLa transduced with BacMam ABCB1 | 20 µM, 10 min, 5% FBS, with: calcein-AM 0.5 µM | baseline: 1 µM tariquidar | inhibition | < 5% |
| CCCN(CCc1ccccc1)C(=O)[C@@H]1OC(C(=O)O)=C[C@H](O)[C@H]1NC(C)=O | JC-1 efflux, inhibitor | Jurkat-DNR | – | – | IC50 | 3.64 ± 1.47 µM |
| CC(C)[C@H](N)c1nc(C(=O)N[C@H](c2nc(C(=O)O)cs2)C(C)C)cs1 | calcein-AM efflux, flow cytometry | HeLa transduced with BacMam ABCB1 | 20 µM, 10 min, 5% FBS, with: calcein-AM 0.5 µM | baseline: 1 µM tariquidar | inhibition | < 5% |
| O=C(c1ccco1)N1CCN(c2cc(-c3ccccc3)nc3cc(-c4cccc(Cl)c4)nn23)CC1 | JC-1 efflux, inhibitor | Jurkat-DNR | – | – | IC50 | 6.18 ± 4.92 µM |
| CCOC(=O)c1csc([C@@H](NC(=O)c2csc([C@@H](NC(=O)c3csc([C@@H](NC(=O)c4csc([C@@H](NC(=O)OC(C)(C)C)C(C)C)n4)C(C)C)n3)C(C)C)n2)C(C)C)n1 | Bodipy-FL-prazosin efflux, flow cytometry | HeLa transduced with BacMam ABCB1 | 10 µM, 45 min, 5% FBS | baseline: 1 µM tariquidar | inhibition | 81% |
| CCOc1cc2ncc(C#N)c(Nc3ccc(OCc4ccccn4)c(Cl)c3)c2cc1NC(=O)/C=C/CN(C)C | substrate, bidirectional transwell permeability | MDCKII cells transfected with ABCB1 | 1 µM, 1 h, pH 7.4 | baseline: without over with elacridar | net efflux ratio | 4.56 |
